Assay results collected from several papers.
Target: Serine/threonine-protein kinase 17B (STK17B, Homo sapiens, UniProt O94768)

| SMILES | assay | test system | conditions | how to read | measurement | value |
| --- | --- | --- | --- | --- | --- | --- |
| CCn1cc(C(=O)O)c(=O)c2c(N)c(F)c(NC3CCCCC3)cc21 | kinase activity |  | 0.1 µM, together with: ATP at Km |  | inhibition | -1.2% |
| C=CC(=O)N1CCCC(n2c(=O)c3ncccc3n(Cc3ccc(Oc4ccccc4)cc3)c2=O)C1 (stereo not shown) | cell-free assay, competition with immobilised ligand |  | 1 µM |  | remaining binding | 99% |
| CNC1C[S+]2CC[S+]3CC[S+](C1)[Ru-4]321([N]=C=S)[n]2c3ccc(OC)cc3c3c4c(c5cc(F)c[n+]1c5c32)C(=O)NC4=O (stereo not shown) | KinomeScan |  | 0.1 µM | reference: untreated | remaining binding | 69% |
| CNC(=O)C[C@H](Cc1ccc(C#N)cc1)NC(=O)c1cc(-c2ccc(CN[C@H](C)c3ccc(C)cc3)o2)ccc1Cl | enzyme activity, inhibitor |  | 1 µM |  | activity vs control | 96% |
| C=CC(=O)N1Cc2nc(-c3cc(-c4cc(Cl)cnc4Cl)c(F)cc3F)n(-c3ccncn3)c2C1 | cell-free assay |  | 1 µM |  | inhibition | -3.5% |
| Cc1ccc(-c2c(/C=C(\C#N)C(=O)NC(C)C)n(CCCO)c3ncnc(N)c23)cc1 | cell-free assay, competition with immobilised ligand |  | 1 µM |  | remaining binding | 71% |
| COc1c(Cl)cccc1Nc1c(-c2ccncc2C#C[C@@]2(C)CCCN2C(=O)/C=C/CN(C)C)[nH]c2c1C(=O)NCC2 | cell-free assay, competition with immobilised ligand |  | 3 µM |  | remaining binding | 85% |
| Nc1ncc2c(n1)-c1c([nH]c3ccc(C4=CCOCC4)cc13)CCC2 | binding, competition with immobilised ligand |  | 1 µM |  | remaining binding | 100% |
| CN1CCN(Cc2ccc(-c3ccc(CO[C@H]4CCC[C@@H]4NC(=O)c4cc(-c5cnn(C)c5)cnc4N)cc3)cc2)CC1 | enzyme activity, inhibitor |  | 0.1 µM |  | inhibition | 14% |
| CCN1CCN(Cc2ccc(C(=O)Nc3ccc(C)c(NCc4cnc5[nH]ccc5c4OC)c3)cc2C(F)(F)F)CC1 | binding, competition with immobilised ligand |  | 1 µM |  | remaining binding | 92% |
| Cc1ccc(C(=O)Nc2ccc(CN3CCN(C)CC3)c(C(F)(F)F)c2)cc1C#Cc1cnc2cccnn12 | target engagement, NanoBRET | human cells |  |  | Hill slope | 0.938 |
| CC(C)=CC1OC(C)(C)C2C=C3C(=O)C(Cl)=CC(O)C3C3C(O)C4OC4C(=O)C132 (stereo not shown) | cell-free assay, competition with immobilised ligand |  | 10 µM |  | remaining binding | 88% |
| COc1cc(Nc2nc(C)cc(-c3cnn4nc(OC)ccc34)n2)cc(C(F)(F)F)c1 | inhibitor |  | 1 µM, DRAK2 | reference: control | remaining activity | 81% |
| CN1CC[C@@H](COc2cnc(C#N)cc2-c2ccn3nc(NC(=O)C4CC4)cc3c2)C1 | enzyme activity, inhibitor |  | 1 µM |  | inhibition | 34% |
| COc1cc(Nc2nccc(-c3cnn4nc(OC)ccc34)n2)cc(C(F)(F)F)c1 | binding, competition with immobilised ligand |  | 1 µM |  | remaining binding | 100% |
| O=C(Cc1ccc(OCc2ccccc2)cc1)NC1(C(=O)O)CCN(C(=O)c2ccc(-c3cccc(Cl)c3)cc2)CC1 | enzyme activity, inhibitor |  | 10 µM |  | activity vs control | 137% |
| CNC(=O)C1CCN(c2cc(C)c(F)cc2NC(=O)c2ccc(-c3cc(O)ccc3C)c(C)c2)CC1 | binding, competition with immobilised ligand |  | 1 µM |  | remaining binding | 100% |
| Cc1cnc2nc1Nc1cccc(c1)COC/C=C/COCc1cc(ccc1OCCN1CCOCC1)N2 | binding, competition with immobilised ligand |  | 0.1 µM |  | remaining binding | 98% |
| C=CC(=O)N1CCc2ccc(-n3c(=O)ccc4cnc5ccc(-c6cnn(C)c6)cc5c43)cc21 | KINOMEscan |  | 1 µM | reference: DMSO control | remaining binding | 100% |

Excerpt of the above:
| SMILES | assay | test system | conditions | how to read | measurement | value |
| --- | --- | --- | --- | --- | --- | --- |
| C=CC(=O)N1Cc2nc(-c3cc(-c4cc(Cl)cnc4Cl)c(F)cc3F)n(-c3ccncn3)c2C1 | cell-free assay |  | 1 µM |  | inhibition | -3.5% |
